# Measured values pooled from the literature.
# A part holds a random share of what one study measured. Changes are numbered by the printed parent chain.

# Set 1 — method: DHFR PCA, deep sequencing; medium: yeast; together with: (+)-ABA 0.39 µM; reference: wild-type fitted maximum; direction: higher = stronger binding
# Target: ABI1, truncated, D143A, DHFR fusion (Arabidopsis thaliana)
# Notes: methotrexate growth selection, single substitutions
# Starting sequence: PYL1, truncated, DHFR fusion (Arabidopsis thaliana); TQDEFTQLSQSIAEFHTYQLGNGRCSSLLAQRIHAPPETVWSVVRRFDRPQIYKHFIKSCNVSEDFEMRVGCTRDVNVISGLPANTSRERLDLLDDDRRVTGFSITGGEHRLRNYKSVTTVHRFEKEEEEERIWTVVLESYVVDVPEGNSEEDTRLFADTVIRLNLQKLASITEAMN
Change,relative binding score
P50A,1.08%
N114K,-2.51%
R98C,9.6%
S59W,7.72%
E38R,-3.08%
T1N,47.8%
Q7P,12%
N85R,72.3%
E151F,-4.72%
H16R,-5.25%
G102Y,-7.14%
T106V,83.5%
E89R,-5.78%
P83F,12.2%
D144T,-3.17%
E125N,40.7%
R132S,72.7%
G102N,-7.01%

# Set 2 — method: universal PBM; molecule type: double-stranded DNA, one strand shown; medium: in vitro; concentration: not given; direction: higher = stronger binding
# Target: Sal-like protein 4, full length isoform B (SALL4, Homo sapiens, UniProt Q9UJQ4-2, residues 1-616)
# Notes: 8-mer, flanks averaged, mean of replicates
# Construct (chain): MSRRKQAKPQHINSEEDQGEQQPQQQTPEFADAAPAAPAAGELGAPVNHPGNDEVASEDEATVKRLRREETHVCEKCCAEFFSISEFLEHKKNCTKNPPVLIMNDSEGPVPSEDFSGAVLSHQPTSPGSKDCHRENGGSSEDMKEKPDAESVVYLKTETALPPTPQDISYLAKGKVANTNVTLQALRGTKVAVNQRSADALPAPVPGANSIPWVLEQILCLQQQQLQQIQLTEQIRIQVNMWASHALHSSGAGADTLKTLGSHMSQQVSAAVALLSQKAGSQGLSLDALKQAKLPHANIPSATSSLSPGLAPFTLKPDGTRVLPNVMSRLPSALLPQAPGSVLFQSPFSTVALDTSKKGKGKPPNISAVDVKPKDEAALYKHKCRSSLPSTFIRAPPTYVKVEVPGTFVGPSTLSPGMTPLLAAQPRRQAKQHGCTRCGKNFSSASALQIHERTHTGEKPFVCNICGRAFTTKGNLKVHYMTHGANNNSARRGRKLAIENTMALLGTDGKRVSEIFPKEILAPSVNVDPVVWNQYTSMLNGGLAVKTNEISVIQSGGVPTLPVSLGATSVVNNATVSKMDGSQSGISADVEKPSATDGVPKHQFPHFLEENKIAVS
Sequence,E-score
TAATGTGA,0.28
ATGGTTCG,-0.0803
AGACCTCA,-0.0551
CTACTGCC,-0.189
AGCAAACT,0.0465
TGCCGCAA,0.089
AAGGGTCT,-0.0251
GCAGCACC,-0.17
CTTCATGA,0.0553
AGCGCGTG,-0.179
CGGTGTAC,-0.215
ATTCTCTC,-0.0603
AGACCCCT,-0.235
CACCCGAA,-0.0192
AGGGTCAA,-0.0274
CACCCATG,-0.00072
ATGTCCAC,-0.0546
TCCCCCGA,-0.206
CAGTCAAC,-0.181
ACTATGTC,0.165
AGTCACCG,-0.334

# Set 3 — method: RNA Bind-n-Seq; molecule type: RNA; medium: in vitro; concentration: 1 µM; notes: whole 134-nt RNA, ends assumed; together with: 150 mM KCl; reference: input library; direction: higher = stronger binding
# Target: Ras GTPase-activating protein-binding protein 1, RRM domain (G3BP1, Homo sapiens, UniProt Q13283)
# Chain of UniProt Q13283 (whole entry, looked up): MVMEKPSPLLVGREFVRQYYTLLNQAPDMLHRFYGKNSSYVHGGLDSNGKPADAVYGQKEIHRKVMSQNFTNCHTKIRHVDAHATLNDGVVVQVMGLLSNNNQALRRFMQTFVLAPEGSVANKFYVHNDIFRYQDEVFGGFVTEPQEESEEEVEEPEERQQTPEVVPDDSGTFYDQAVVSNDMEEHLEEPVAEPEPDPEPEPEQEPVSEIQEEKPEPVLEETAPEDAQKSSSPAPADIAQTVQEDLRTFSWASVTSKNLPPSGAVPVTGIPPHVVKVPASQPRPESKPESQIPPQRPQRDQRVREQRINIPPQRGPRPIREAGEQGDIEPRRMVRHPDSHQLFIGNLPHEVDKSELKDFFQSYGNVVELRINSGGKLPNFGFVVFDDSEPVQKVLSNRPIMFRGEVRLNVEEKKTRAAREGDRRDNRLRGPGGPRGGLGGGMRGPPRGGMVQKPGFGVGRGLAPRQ
# Constant ends, left off below: GGGAGUUCUACAGUCCGACGAUC … UGGAAUUCUCGGGUGUCAAGG
Sequence,log2 enrichment
UCCUGUGCUACACAUCGUAUGUACCGAAUCGGGUUUUUUUGGGAAAAAGGGAAAAAGGGAAAGUAUUAUGUUACGCCGUUCGGAUCUGCA,-0.13
UAACUUUAGAGGAGGAUCUGAUGGAUAUGGCAGUGGACGUGGAUUUGGGGAUGGCUAUAAUGGGUAUGGAGGAGGACCUGGGGGUGGCAA,-0.431
UUUGCUGUUGUUAACCAUCAAGGGACCUUGGAGAGUGGCCACUACACCAGCUUUAUCCGGCAGCACAAAGACCAGUGGUUCAAGUGUGAC,-0.0635
GCAGGAAGUAAAAACAAAUGGUAAUGCUUCGGAUAGUGGCAGGGGUGGGGGUUGCUAAGGAAAGGGUGGGAUGGGAGUGGGUAAAGAGUU,1.62
AGUCCUGUGCUACACAUCGUAUGUACCGAAUCGGGGAAAAAGGGGUUUGGGGAGGGGAAAGUAUUAUGUUACGCCGUUCGGAUCUGCACU,1.39
GCAGGAAGUAAAAACAAAUGGAAAUACUUCGGAUAGUGGCAGGGGUGGGGGUUGCUAAGGAAAGGGUGGGAUGGGAGUGGGUAAAGAGUU,1.38
UCAAGUCCUGUGCUACACAUCGUAUGUACCGAAUCGGAAAGGGAAAGGAAAGGGGAAAGUAUUAUGUUACGCCGUUCGGAUCUGCACUUC,-0.125
UUAGGGAUGUGGCCAUAGAAUUCUCUCAGGAGGAGUGGAAAUGCCUGGACCCUGCUCAGAGGAUCUUAUACAGGGACGUGAUGUUGGAGA,0.133
UCAAGUCCUGUGCUACACAUCGUAUGUACCGAAUCGGCCGGGGCCGGGCCGGGGAAAGUAUUAUGUUACGCCGUUCGGAUCUGCACUUCC,-0.774
CACAGACAACACGCACCCACACAGACACAGAGGGAAGGGGUUGGGAUGGGGACAGGGUGCACAGCUGGGCGGGGUAGGACCCCAGCCCCU,0.0362
UGGCCCUGGUGGCAUGCGGGGAGGAAGAGGUGGCCCCAUGGAUCGUGGUGGUCCCGGUGGAAUGUUCAGAGGUGGCCGUGGUGGAGACAG,1.03
CAAGUCCUGUGCUACACAUCGUAUGUACCGAAUCGGGUUUGGGUUUGGGAAAGGGAAAGUAUUAUGUUACGCCGUUCGGAUCUGCACUUC,0.849
AAGUCCUGUGCUACACAUCGUAUGUACCGAAUCGGGCCCCGGGCCCCGGGCCCCGGAAAGUAUUAUGUUACGCCGUUCGGAUCUGCACUU,-1.1
UGGGAGGUGGAUUUUGUUUAUUUUUUUAGCUCAUUUCCAGGGGUGGGAAUUUUUUUUUAAUAUGUGUCAUGAAUAAAGUGGUUUUUGAAA,1.59

# Set 4 — method: protein-binding microarray; molecule type: double-stranded DNA, one strand shown; medium: in vitro; concentration: 2200 nM top; notes: 60-bp whole probe; together with: salmon DNA 0.4 mg/ml; reference: random background probes; direction: higher = stronger binding; constant ends, left off below: GCCTAGCAC … GTCTTGATTCGCTTGACGCTGCTG
# Target: Interferon regulatory factor 7, full length, phosphomimetic (IRF7, Homo sapiens, UniProt Q92985, residues 1-503, S471D/S472D/S475D/S476D/S477D/S483D/S484D/S487D)
# Residues (chain): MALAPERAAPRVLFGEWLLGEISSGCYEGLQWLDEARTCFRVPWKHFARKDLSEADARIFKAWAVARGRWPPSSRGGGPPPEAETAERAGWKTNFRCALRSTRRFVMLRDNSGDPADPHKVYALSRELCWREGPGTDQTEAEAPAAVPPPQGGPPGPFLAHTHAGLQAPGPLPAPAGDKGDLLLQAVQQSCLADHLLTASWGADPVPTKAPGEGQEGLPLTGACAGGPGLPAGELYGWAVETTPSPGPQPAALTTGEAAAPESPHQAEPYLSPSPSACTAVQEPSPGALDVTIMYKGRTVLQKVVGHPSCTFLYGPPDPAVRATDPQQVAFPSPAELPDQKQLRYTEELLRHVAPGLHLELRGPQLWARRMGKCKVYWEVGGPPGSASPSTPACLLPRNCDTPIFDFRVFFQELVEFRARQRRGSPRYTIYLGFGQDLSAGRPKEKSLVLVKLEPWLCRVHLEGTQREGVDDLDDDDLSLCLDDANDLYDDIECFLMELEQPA
Sequence,fitted relative affinity [z-score]
TTAGATATCGGGACTGGGTTAGTGCTA,-0.28
GTGACTCAGCACTTTGGCATGGTGCTA,0.141
TCATCTTTCCATACTGCACTGTGCTAG,2.62
CTGATTTCCACTTTCTTAATGTGCTAG,4.15
TCATTTTTTTTTTTTTGACTGTGCTAG,2.14
GACGATATCAGACGGGAGACGTGCTAG,0.0216
GAGATCATCCGTTTCTTCTAGTGCTAG,1.33
ACTCTTCTTTTTTTTCTTTAGTGCTAG,2.48
GGCAGGAATAAAGGAGCAGCGTGCTAG,-1.59
TTAGGTATCGGTCTCGGTTTGTGCTAG,2.05
GACGATTTCAGTCCCGAGACGTGCTAG,0.809
GACGTTTTCAGTCTCGAGACGTGCTAG,2.13
TTAGGTTTCGGTTCCGGGTAGTGCTAG,11.5
GACGGTATCCACACTGGGGACGTGCTA,-0.317
TTACATTTCAGTTCCGATTAGTGCTAG,3.06
TTTGGTATCGGGTTTCGGTTAGTGCTA,4.67

# Set 5 — method: protein-binding microarray; molecule type: double-stranded DNA, one strand shown; medium: in vitro; concentration: 0.8 µM; notes: whole 60-bp probe, no competitor; direction: higher = stronger binding; constant ends, left off below: … GTCTTGATTCGCTTGACGCTGCTG
# Target: Centromere-binding protein 1, full length, N-terminal tag (CBF1, Saccharomyces cerevisiae, UniProt P17106, residues 1-351)
# Chain of UniProt P17106 (whole entry, looked up): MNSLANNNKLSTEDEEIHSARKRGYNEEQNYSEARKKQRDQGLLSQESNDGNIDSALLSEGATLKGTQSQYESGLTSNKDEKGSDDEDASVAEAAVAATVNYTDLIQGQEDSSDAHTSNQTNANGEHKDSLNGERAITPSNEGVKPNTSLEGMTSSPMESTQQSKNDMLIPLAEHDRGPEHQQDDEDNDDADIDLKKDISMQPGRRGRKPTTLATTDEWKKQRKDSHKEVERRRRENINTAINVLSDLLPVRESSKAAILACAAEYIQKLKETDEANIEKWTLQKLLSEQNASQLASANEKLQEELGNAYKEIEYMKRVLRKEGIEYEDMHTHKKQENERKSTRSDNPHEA
Sequence,fluorescence intensity
GAAGCCTTTTCAGAGGTGATGAGCAATCTCGATTAG,532 a.u.
GAAACGAAAATAAACCACATGGGAATATGTTAATAG,656 a.u.
TGTACGAAGCTATCTTCCGTGCATATAGTAGTTAGG,526 a.u.
GAACGCTACAAACGTGGTGGAGTTTTAACCCTATAG,531 a.u.
CTAGTTGTGATCCGTCACGTGTATGCAAAACGCTTC,12600 a.u.
CTATTCTTTGCATGTCACCATTGGGATCGGTGATTC,544 a.u.
GAAGTCACGTACGATAACGTGATCCTGCCACAGTAG,3080 a.u.
CTAAAACGCTTCGGTAATCTGGTGAAATGATTGTTC,519 a.u.
CCTAACTACTATAGTGGTCGCGCATAGCTTCGTACA,494 a.u.
GAACAAATTATGGAACACGTTCGGAATATTACTTAG,718 a.u.
GAAGGTGTCTCTAGTGATGTCAATGAACGGATGTAG,534 a.u.
CTAGTAGAAAAGTATTACATCAGCACGAGTAACTTC,651 a.u.
CTACGCCGTCGGAGTGACATCAAGTACCATAGATTC,515 a.u.
GAAGACAGAGTAGATGACATCACTGAGGTCCTTTAG,523 a.u.
GAAACCATAACACCCGTGATGACAACAACAGGATAG,846 a.u.
CTAGCGTTTCCTACGCACCTGCTAAAGACCTGATTC,649 a.u.
CTACACTTAATACACCACCTGGTGTCCATTGCCTTC,585 a.u.
CTAGATATGGACAAACACGTTGTTTTGATTTCTTTC,659 a.u.
GAAGAAGTTATATGTCATGTTGCTCATTCTGTTTAG,546 a.u.

# Some of these lines once more (set 5):
Sequence,fluorescence intensity
GAAGTCACGTACGATAACGTGATCCTGCCACAGTAG,3080 a.u.
CTAAAACGCTTCGGTAATCTGGTGAAATGATTGTTC,519 a.u.
CCTAACTACTATAGTGGTCGCGCATAGCTTCGTACA,494 a.u.
GAACAAATTATGGAACACGTTCGGAATATTACTTAG,718 a.u.
GAAGGTGTCTCTAGTGATGTCAATGAACGGATGTAG,534 a.u.
CTAGTAGAAAAGTATTACATCAGCACGAGTAACTTC,651 a.u.
CTACGCCGTCGGAGTGACATCAAGTACCATAGATTC,515 a.u.
GAAGACAGAGTAGATGACATCACTGAGGTCCTTTAG,523 a.u.
GAAACCATAACACCCGTGATGACAACAACAGGATAG,846 a.u.
CTAGCGTTTCCTACGCACCTGCTAAAGACCTGATTC,649 a.u.
CTACACTTAATACACCACCTGGTGTCCATTGCCTTC,585 a.u.
